Measured values of several laboratories.
Each line is one published result; not all experiments were run side by side.
U2AF2: U2AF2 148-342 (Homo sapiens, UniProt P26368)
Sequence of UniProt P26368 (whole entry, looked up): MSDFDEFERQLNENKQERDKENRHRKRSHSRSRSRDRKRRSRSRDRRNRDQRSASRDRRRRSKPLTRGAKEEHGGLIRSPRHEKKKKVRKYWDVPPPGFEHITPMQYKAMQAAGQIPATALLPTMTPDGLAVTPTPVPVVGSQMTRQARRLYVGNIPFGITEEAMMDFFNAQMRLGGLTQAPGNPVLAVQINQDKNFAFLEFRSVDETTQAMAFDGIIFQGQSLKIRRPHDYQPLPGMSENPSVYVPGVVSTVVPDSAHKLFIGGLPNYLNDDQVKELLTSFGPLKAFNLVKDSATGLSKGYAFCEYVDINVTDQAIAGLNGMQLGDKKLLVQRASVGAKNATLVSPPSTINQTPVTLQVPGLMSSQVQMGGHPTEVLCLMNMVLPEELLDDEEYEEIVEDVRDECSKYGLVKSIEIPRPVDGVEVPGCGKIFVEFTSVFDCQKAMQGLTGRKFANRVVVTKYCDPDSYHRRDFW
B1: TGFBI FAS1-4 domain, residues 502-657 (Homo sapiens, UniProt Q15582); chain AGMGTVMDVLKGDNRFSMLVAAIQSAGLTETLNREGVYTVFAPTNEAFRALPPRERSRLLGDAKELANILKYHIGDEILVSGGIGALVRLKSLQGDKLEVSLKNNVVSVNKEPVAEPDIMATNGVVHVITNVLQPPANRPQERGDELADSALEIFKQA
B2: ccmK2 1-102 H76N (Synechococcus elongatus, UniProt Q03511); chain MPIAVGMIETLGFPAVVEAADAMVKAARVTLVGYEKIGSGRVTVIVRGDVSEVQASVSAGLDSAKRVAGGEVLSHNIIARPHENLEYVLPIRYTEAVEQFRM
B3: SSBP1 19-148 (Homo sapiens, UniProt Q04837); chain ETTTSLVLERSLNRVHLLGRVGQDPVLRQVEGKNPVTIFSLATNEMWRSGDSEVYQLGDVSQKTTWHRISVFRPGLRDVAYQYVKKGSRIYLEGKIDYGEYMDKNNVRRQATTIIADNIIFLSDQTKEKE
B4: ADAR1 127-end 127-1226 A870T (human, UniProt P55265); sequence looked up; chain SSHFQELSIYQDQEQRILKFLEELGEGKATTAHDLSGKLGTPKKEINRVLYSLAKKGKLQKEAGTPPLWKIAVSTQAWNQHSGVVRPDGHSQGAPNSDPSLEPEDRNSTSVSEDLLEPFIAVSAQAWNQHSGVVRPDSHSQGSPNSDPGLEPEDSNSTSALEDPLEFLDMAEIKEKICDYLFNVSDSSALNLAKNIGLTKARDINAVLIDMERQGDVYRQGTTPPIWHLTDKKRERMQIKRNTNSVPETAPAAIPETKRNAEFLTCNIPTSNASNNMVTTEKVENGQEPVIKLENRQEARPEPARLKPPVHYNGPSKAGYVDFENGQWATDDIPDDLNSIRAAPGEFRAIMEMPSFYSHGLPRCSPYKKLTECQLKNPISGLLEYAQFASQTCEFNMIEQSGPPHEPRFKFQVVINGREFPPAEAGSKKVAKQDAAMKAMTILLEEAKAKDSGKSEESSHYSTEKESEKTAESQTPTPSATSFFSGKSPVTTLLECMHKLGNSCEFRLLSKEGPAHEPKFQYCVAVGAQTFPSVSAPSKKVAKQMAAEEAMKALHGEATNSMASDNQPEGMISESLDNLESMMPNKVRKIGELVRYLNTNPVGGLLEYARSHGFAAEFKLVDQSGPPHEPKFVYQAKVGGRWFPAVCAHSKKQGKQEAADAALRVLIGENEKAERMGFTEVTPVTGASLRRTMLLLSRSPEAQPKTLPLTGSTFHDQIAMLSHRCFNTLTNSFQPSLLGRKILTAIIMKKDSEDMGVVVSLGTGNRCVKGDSLSLKGETVNDCHAEIISRRGFIRFLYSELMKYNSQTAKDSIFEPAKGGEKLQIKKTVSFHLYISTAPCGDGALFDKSCSDRAMESTESRHYPVFENPKQGKLRTKVENGEGTIPVESSDIVPTWDGIRLGERLRTMSCSDKILRWNVLGLQGALLTHFLQPIYLKSVTLGYLFSQGHLTRAICCRVTRDGSAFEDGLRHPFIVNHPKVGRVSIYDSKRQSGKTKETSVNWCLADGYDLEILDGTRGTVDGPRNELSRVSKKNIFLLFKKLCSFRYRRDLLRLSYGEAKKAARDYETAKNYFKKGLKDMGYGNWISKPQEEKNFYLCPV
B5: Teth514_1788 2-296 (Thermoanaerobacter sp. X514, UniProt B0K2C2); chain IKLKRLSDKPVLMPKAENEWERAAVFNTAAIYDNGLFHLIYRATDIGPHAKYGKYISRLGYAVSKDGINFMRLDKPVMSNETEQELRGLEDPRIVKIDGIYYMMYTGFGDRFQDDYRICLATSKNLIDWERKGVVLDEPNKDASLFPEKINGKYVMLHRRYPDIWIAFSDDLKNWYDHKPILKPIPNTWESARVGIGGPPIKTKDGWFLIYHAADDNNVYRLGAVLLDLEDPSKVIARQKEPILEPELGWEKEGYIPNVVFSCGNAVKDDTIYVYYGGADTVIGVAILEMKDIKF
B6: Pah 1-431 (Rattus norvegicus, UniProt P04176); sequence looked up; chain MAAVVLENGVLSRKLSDFGQETSYIEDNSNQNGAISLIFSLKEEVGALAKVLRLFEENDINLTHIESRPSRLNKDEYEFFTYLDKRTKPVLGSIIKSLRNDIGATVHELSRDKEKNTVPWFPRTIQELDRFANQILSYGAELDADHPGFKDPVYRARRKQFADIAYNYRHGQPIPRVEYTEEEKQTWGTVFRTLKALYKTHACYEHNHIFPLLEKYCGFREDNIPQLEDVSQFLQTCTGFRLRPVAGLLSSRDFLGGLAFRVFHCTQYIRHGSKPMYTPEPDICHELLGHVPLFSDRSFAQFSQEIGLASLGAPDEYIEKLATIYWFTVEFGLCKEGDSIKAYGAGLLSSFGELQYCLSDKPKLLPLELEKTACQEYSVTEFQPLYYVAESFSDAKEKVRTFAATIPRPFSVRYDPYTQRVEVLDNTQQLK
B7: PsbS mature P132A (Arabidopsis thaliana, UniProt Q9XF91); sequence looked up; chain AAPKKVEKPKSKVEDGIFGTSGGIGFTKANELFVGRVAMIGFAASLLGEALTGKGILAQLNLETGIPIYEAEALLLFFILFTLLGAIGALGDRGKFVDDPPTGLEKAVIPPGKNVRSALGLKEQGPLFGFTKANELFVGRLAQLGIAFSLIGEIITGKGALAQLNIETGIPIQDIEPLVLLNVAFFFFAAINPGNGKFITDDGEES
B8: Ph-p 1288-1577 (Drosophila melanogaster, UniProt P39769); chain SISNGSKDLPKAMIKPNVLTHVIDGFIIQEANEPFPVTRQRYADKDVSDEPPKKKATMQEDIKLSGIASAPGSDMVACEQCGKMEHKAKLKRKRYCSPGCSRQAKNGIGGVGSGETNGLGTGGIVGVDAMALVDRLDEAMAEEKMQTEATPKLSESFPILGASTEVPPMSLPVQAAISAPSPLAMPLGSPLSVALPTLAPLSVVTSGAAPKSSEVNGTDRPPISSWSVDDVSNFIRELPGCQDYVDDFIQQEIDGQALLLLKEKHLVNAMGMKLGPALKIVAKVESIKEV
B9: EndoA (Drosophila melanogaster, UniProt Q8T390); sequence looked up; chain MAFAGLKKQINKANQYMTEKMGGAEGTKLDMDFMEMERKTDVTVELVEELQLKTKEFLQPNPTARAKMAAVKGISKLSGQAKSNTYPQPEGLLAECMLTYGKKLGEDNSVFAQALVEFGEALKQMADVKYSLDDNIKQNFLEPLHHMQTKDLKEVMHHRKKLQGRRLDFDCKRRRQAKDDEIRGAEDKFGESLQLAQVGMFNLLENDTEHVSQLVTFAEALYDFHSQCADVLRGLQETLQEKRSEAESRPRNEFVPKTLLDLNLDGGGGGLNEDGTPSHISSSASPLPSPMRSPAKSMAVTPQRQQQPCCQALYDFEPENPGELAFKENDIITLLNRVDDNWFEGAVNGRTGYFPQSYVQVQVPLPNGN
B10: clcA 1-465 (Escherichia coli, UniProt P37019); chain MKTDTPSLETPQAARLRRRQLIRQLLERDKTPLAILFMAAVVGTLVGLAAVAFDKGVAWLQNQRMGALVHTADNYPLLLTVAFLCSAVLAMFGYFLVRKYAPEAGGSGIPEIEGALEDQRPVRWWRVLPVKFFGGLGTLGGGMVLGREGPTVQIGGNIGRMVLDIFRLKGDEARHTLLATGAAAGLAAAFNAPLAGILFIIEEMRPQFRYTLISIKAVFIGVIMSTIMYRIFNHEVALIDVGKLSDAPLNTLWLYLILGIIFGIFGPIFNKWVLGMQDLLHRVHGGNITKWVLMGGAIGGLCGLLGFVAPATSGGGFNLIPIATAGNFSMGMLVFIFVARVITTLLCFSSGAPGGIFAPMLALGTVLGTAFGMVAVELFPQYHLEAGTFAIAGMGALLAASIRAPLTGIILVLEMTDNYQLILPMIITGLGATLLAQFTGGKPLYSAILARTLAKQEAEQLARSK
B11: sso0001 1-202 C197A (Sulfolobus solfataricus, UniProt Q97TX9); chain MITEFLLKKKLEEHLSHVKEENTIYVTDLVRCPRRVRYESEYKELAISQVYAPSAILGDILHLGLESVLKGNFNAETEVETLREINVGGKVYKIKGRADAIIRNDNGKSIVIEIKTSRSDKGLPLIHHKMQLQIYLWLFSAEKGILVYITPDRIAEYEINEPLDEATIVRLAEDTIMLQNSPRFNWECKYCIFSVIAPAKLT
B12: clpP2 heptamer (Pseudomonas aeruginosa, UniProt Q9HYR9); sequence looked up; chain MKTDDKDREGGDSHGAIGAKLMEYALKVRKVFVTGGVDEKMAKDVVQQLHILASISDDPIYMFVNSPGGHVESGDMIFDAIRFITPKVIMIGSGSVASAGALIYAAADKENRYSLPNTRFLLHQPSGGIQGPASNIEIYRREIVRMKERLDRIFAEATGQTPEKISADTERDFWLNAEEAVQYGLVNKIIVSEREITLPGQ
B13: GBP2 1-309 (Homo sapiens, UniProt P32456); sequence looked up; chain MAPEINLPGPMSLIDNTKGQLVVNPEALKILSAITQPVVVVAIVGLYRTGKSYLMNKLAGKKNGFSLGSTVKSHTKGIWMWCVPHPKKPEHTLVLLDTEGLGDIEKGDNENDSWIFALAILLSSTFVYNSMGTINQQAMDQLHYVTELTDRIKANSSPGNNSVDDSADFVSFFPAFVWTLRDFTLELEVDGEPITADDYLELSLKLRKGTDKKSKSFNDPRLCIRKFFPKRKCFVFDWPAPKKYLAHLEQLKEEELNPDFIEQVAEFCSYILSHSNVKTLSGGIPVNGPRLESLVLTYVNAISSGDLPC
Sequence of UniProt A0A348FUE1 (whole entry, looked up): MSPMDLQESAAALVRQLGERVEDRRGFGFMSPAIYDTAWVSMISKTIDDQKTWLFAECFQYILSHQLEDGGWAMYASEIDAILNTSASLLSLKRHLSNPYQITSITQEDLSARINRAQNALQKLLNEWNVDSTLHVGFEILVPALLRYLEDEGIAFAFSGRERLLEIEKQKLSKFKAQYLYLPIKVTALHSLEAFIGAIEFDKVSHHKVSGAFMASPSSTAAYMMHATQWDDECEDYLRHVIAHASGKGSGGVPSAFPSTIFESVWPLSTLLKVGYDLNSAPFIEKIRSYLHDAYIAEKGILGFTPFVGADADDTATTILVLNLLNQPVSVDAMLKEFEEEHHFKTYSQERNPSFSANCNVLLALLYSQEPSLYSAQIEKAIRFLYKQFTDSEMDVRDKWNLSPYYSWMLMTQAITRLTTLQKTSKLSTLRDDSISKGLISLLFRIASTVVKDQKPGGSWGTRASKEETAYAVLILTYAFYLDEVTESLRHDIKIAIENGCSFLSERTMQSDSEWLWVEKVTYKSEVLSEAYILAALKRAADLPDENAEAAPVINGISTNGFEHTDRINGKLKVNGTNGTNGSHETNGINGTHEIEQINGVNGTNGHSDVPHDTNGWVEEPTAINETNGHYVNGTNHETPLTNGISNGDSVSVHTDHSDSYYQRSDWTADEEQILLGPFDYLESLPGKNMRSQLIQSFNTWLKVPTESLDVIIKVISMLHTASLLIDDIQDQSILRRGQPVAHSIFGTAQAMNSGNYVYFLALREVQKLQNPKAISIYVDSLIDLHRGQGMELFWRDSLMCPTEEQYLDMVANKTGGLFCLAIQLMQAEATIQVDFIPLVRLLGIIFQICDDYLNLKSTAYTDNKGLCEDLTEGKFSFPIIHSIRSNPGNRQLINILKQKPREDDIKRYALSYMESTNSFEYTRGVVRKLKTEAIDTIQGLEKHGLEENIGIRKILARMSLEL

Under “subunits per oligomer”, `B1` is recorded as 2 (itself; cross-linking).
For `RQHLLPLLRRLARRLSSQDMREALLSCLLFVLSQQQPPDSGEASRVDHSQRKERLGPQK (Mymx ectodomain 26-84 (UniProt Q2Q5T5); sequence looked up)`, “subunits per oligomer” read 2 (itself; SDS-PAGE).
`B2 (ccmK2 1-102 H76N)` — result for “subunits per oligomer”: 6 (itself; SEC).
For `B3 (SSBP1 19-148)`, “subunits per oligomer” read 4 (itself; SEC).
The Kd of `CAUUUAUGU (ssRNA)` is reported as 4020 nM (U2AF2; sequencing of bound RNA; RNA; motif only).
`B4 (ADAR1 127-end 127-1226 A870T)`: “subunits per oligomer” 2 (itself; SEC).
`B5 (Teth514_1788 2-296)` — result for “subunits per oligomer”: 2 (itself; crystal structure).
`B6 (Pah 1-431)` — result for “subunits per oligomer”: 2 (itself; native gel).
`protein (Penicillium verruculosum, UniProt A0A348FUE1)` — result for “subunits per oligomer”: 6 (itself; SEC-SAXS).
`Sncg (Mus musculus, UniProt Q9Z0F7)` — result for “subunits per oligomer”: 2 (itself; SDS-PAGE, western blot; not purified, SDS-resistant oligomers).
`B7 (PsbS mature P132A)`: “subunits per oligomer” 2 (itself; native PAGE; not purified).
`B8 (Ph-p 1288-1577)`: “subunits per oligomer” 5 (itself; SEC-MALS; self-association).
`B9 (EndoA)`: “subunits per oligomer” 2 (itself; SEC-SAXS).
`B10 (clcA 1-465)`: “subunits per oligomer” 2 (itself; SEC).
`human apolipoprotein D`: “log2 fold change” -2.19 (PP6C (human); co-immunoprecipitation, IP-MS; CYB5R4 knockout cells; concentration not given; relative to: CYB5R4 knockout over parental).
For `B11 (sso0001 1-202 C197A)`, “subunits per oligomer” read 5 protomers (itself; SEC).
The Kd of `CCCCUAAGU (ssRNA)` is reported as 1770 nM (U2AF2; sequencing of bound RNA; RNA; motif only).
For `B12 (clpP2 heptamer)`, “subunits per oligomer” read 7 (itself; pull-down, SEC).
`B13 (GBP2 1-309)`: “subunits per oligomer” 2 (itself; SEC).

Some of these lines once more:
`B9 (EndoA)`: “subunits per oligomer” 2 (itself; SEC-SAXS).
